Published values from different studies.
Lines come from different studies, so protocols differ. Values joined by “and” are separate records of one study, mostly repeats; a detail may differ. ± gives the spread as reported.

| Structure (SMILES) | target | test | system | conditions | how to read | endpoint | value |
| --- | --- | --- | --- | --- | --- | --- | --- |
| COc1cccc(Nc2nc(NCC3CCCO3)c3ccccc3n2)c1.Cl (centres unmarked) | Renilla luciferase reporter mRNA | in vitro translation, inhibitor | Trypanosoma cruzi translation extract | 5 µM | – | inhibition | 16% |
| C=CC1=C(C)c2cc3[nH]c(cc4nc(cc5[nH]c(cc1n2)c(C)c5CCC(=O)O)C(CCC(=O)O)=C4C)c(C)c3C=C | thioredoxin reductase (human) | cellular enzyme activity, insulin end-point assay in lysates | A549 | 10 µM, 24 h | – | inhibition | ~90% |
| O=C(O)c1ccc2c(c1)nc(Nc1ccc(Cl)cc1)c1ccncc12 | DYRK and HIPK kinases | enzyme activity, inhibitor, eight-kinase enzymatic panel | – | 1 µM, percent of control below 10 | – | number of kinases inhibited | 5 |
| O=C(O)Cc1cccc2ccccc12 | TMK1 with ABL1/ABL2 (Arabidopsis thaliana) | co-immunoprecipitation | Arabidopsis thaliana, TMK1-GFP seedlings | 5 µM | – | time to interaction | ≤ 1 min |
| Cl.Fc1ccc(Nc2nc(NCC3CCCO3)c3ccccc3n2)cc1 (centres unmarked) | Renilla luciferase reporter mRNA | in vitro translation, inhibitor | Trypanosoma cruzi translation extract | 10 µM | – | inhibition | 2.7% |
| COc1ccnn2ncc(-c3ccnc(N(C)C)n3)c12 | FLT3 ITD human | KINOMEscan binding | – | 1000 nM | baseline: control | remaining binding | 100% |
| Nc1ncc2c(n1)-c1c([nH]c3ccc(C#CC4CC4)cc13)CCCC2 | FLT3 ITD D835V | scanMAX | – | 1 µM | baseline: control | remaining binding | 75% |
| CC1CCCN1c1nccc(-c2cnn3ncccc23)n1 (centres unmarked) | FLT3 ITD human | KINOMEscan binding | – | 1000 nM | baseline: control | remaining binding | 100% |
| c1coc(-c2n[nH]cc2-c2ccnc3ccccc23)c1 | orf19.4518 Candida albicans | kinase binding, MIB/MS competition | Candida albicans lysate | 10 µM | baseline: DMSO | log2 fold change | -0.1 |
| CCCCCCCC(=O)OC[C@H](COP(=O)(O)O[C@@H]1[C@H](O)[C@H](O)[C@@H](OP(=O)(O)O)[C@H](OP(=O)(O)O)[C@H]1O)OC(=O)CCCCCCC | Kv7.2/Kv7.3(EEE) mutant channel | channel open probability, activator, fitted PIP2 binding model | – | model 5, efficacy fixed to wild type | baseline: channel without bound PIP2 | efficacy factor E2 | 0.18 |
| C[C@H](CCC(C)(C)O)[C@H]1CC[C@H]2[C@@H]3CC=C4C[C@@](C)(O)CC[C@]4(C)[C@H]3CC[C@]12C | GluN1/GluN2C NMDA receptor (human) | glutamate-evoked current, two-electrode voltage clamp | – | 10 µM, holding potential -80 mV, together with: glutamate and glycine | baseline: glutamate response without compound | Emax | 131% |
| O=C(O)c1ccc2c(c1)nc(Nc1ccc3ccccc3c1)c1ccncc12 | DYRK and HIPK kinases | enzyme activity, inhibitor, eight-kinase enzymatic panel | – | 1 µM, percent of control below 10 | – | number of kinases inhibited | 5 |
| CN1C[C@H](COc2nccc3c(NCc4ccco4)cc(Cl)nc23)OC1=O | alpha-galactosidase A (GLA) human | activator | Fabry disease iPSC-derived cardiomyocytes | 1 µM | baseline: wild type | enzyme activity | 9.2% |
| C[n+]1cccc2cc(C=NNC(=O)c3ccc4ccc5ccc(C(=O)NN=Cc6ccc7c(ccc[n+]7C)c6)nc5c4n3)ccc21.[I-].[I-] | MYC parallel G4 DNA | FRET melting | – | 1 µM, DNA 0.2 µM | – | ΔTm | 20.8 ± 0.4 °C |
| O=C(O)c1ccc2c(c1)nc(NCCc1cccc(F)c1)c1ccncc12 | DYRK and HIPK kinases | enzyme activity, inhibitor, eight-kinase enzymatic panel | – | 1 µM, percent of control below 10 | – | number of kinases inhibited | 5 |
| Oc1ccccc1-c1n[nH]cc1-c1ccnc2ccccc12 | orf19.4518 Candida albicans | kinase binding, MIB/MS competition | Candida albicans lysate | 1 µM | baseline: DMSO | log2 fold change | 0.21 |
| C=CC(=O)N1CCC(C(=O)NCC(=O)N2CCN(c3nc(-c4cnc(N)nc4C(F)F)nc(N4CCOCC4)n3)CC2)CC1 | FLT3 ITD/D835V | KINOMEscan | – | 1 µM | baseline: vehicle | remaining binding | 87% |
| O=C(O)c1ccc2c(c1)nc(NCCc1ccccc1)c1ccncc12 | DYRK and HIPK kinases | enzyme activity, inhibitor, eight-kinase enzymatic panel | – | 1 µM, percent of control below 10 | – | number of kinases inhibited | 5 |

| Structure (SMILES) | target | test | system | conditions | how to read | endpoint | value |
| --- | --- | --- | --- | --- | --- | --- | --- |
| CC(Nc1nc(N2CCCC2)nc2ccccc12)c1ccccc1 (centres unmarked) | transportin-1/2 | FUS nuclear import, high content imaging | HeLa Kyoto reporter | 1.58 µM, 2 h | – | cells with nuclear reporter | 94.8% |
| CCNC(=O)/C=C/c1cccc(Br)c1 | endogenous leucine transporters hamster | inhibitor, L-[14C]leucine uptake | CHO-BC cells | 1 µM, sodium-free | – | L-leucine uptake | 27.9 nmol/6 min/mg protein and 26.7 nmol/6 min/mg protein and 28.8 nmol/6 min/mg protein |
| CN(C)c1ncc(F)c(-c2cnn3ncccc23)n1 | FLT3 ITD human | KINOMEscan binding | – | 1000 nM | baseline: control | remaining binding | 100% |
| CC[C@H](C)[C@H](NC(=O)[C@H](CC(=O)O)NC(=O)[C@H](CCC(=O)O)NC(=O)[C@@H](N)CC(N)=O)C(=O)N[C@@H](CC(=O)O)C(=O)N[C@@H](CCC(N)=O)C(=O)N[C@@H](CCSC)C(=O)N[C@@H](Cc1ccccc1)C(=O)N[C@@H](CO)C(=O)N[C@H](C(=O)N[C@@H](CC(C)C)C(=O)N[C@@H](CC(C)C)C(=O)NCC(=O)N[C@@H](CCC(=O)O)C(=O)N[C@@H](CCSC)C(=O)N[C@@H](CC(=O)O)C(=O)N[C@@H](CC(C)C)C(=O)N[C@@H](CC(C)C)C(=O)N[C@H](C(=O)N[C@@H](CCC(N)=O)C(=O)N[C@@H](CO)C(=O)O)[C@@H](C)O)[C@@H](C)O | talin head domain | inhibitor, PAC-1 flow cytometry | CHO-A5 expressing GFP-talin head domain | 100 µM, 30 min, 37 °C | – | integrin αIIbβ3 activation | no inhibition |
| O=C(O)c1ccc2c(c1)nc(NCCc1cccc(Cl)c1)c1ccncc12 | DYRK and HIPK kinases | enzyme activity, inhibitor, eight-kinase enzymatic panel | – | 1 µM, percent of control below 10 | – | number of kinases inhibited | 1 |
| Cc1cc2c(cc1N1C(=O)c3cccc4c(Cl)ccc(c34)C1=O)n(C)c(=O)n2C | SMARCA2 | – | – | 10 µM | – | delta Tm | 0.5 K |
| N#Cc1cccc(Nc2nc3cc(C(=O)O)ccc3c3cnccc23)c1 | DYRK and HIPK kinases | enzyme activity, inhibitor, eight-kinase enzymatic panel | – | 1 µM, percent of control below 10 | – | number of kinases inhibited | 4 |
| C[S+](C)CCC(=O)[O-] | SAR11_0797 Candidatus Pelagibacter ubique | differential scanning fluorimetry | – | concentration not given, unit not given | higher = stronger binding | ΔTm | 2.34 |
| COc1cc(/C=C/C(=O)CC(=O)/C=C/c2ccc(O)c(OC)c2)ccc1O | 17β-HSD (human) | androstenedione formation | LS180 | 100 µM | – | inhibition | inhibited |
| COc1cccc(Nc2nc3cc(C(=O)O)ccc3c3cnccc23)c1 | DYRK and HIPK kinases | enzyme activity, inhibitor, eight-kinase enzymatic panel | – | 1 µM, percent of control below 10 | – | number of kinases inhibited | 5 |
| Cc1cnn2ncc(-c3ccnc(N(C)C)n3)c2c1 | FLT3 ITD human | KINOMEscan binding | – | 1000 nM | baseline: control | remaining binding | 82% |
| COc1ccc(F)cc1C(=O)NCc1ccc(-c2nn([C@@H](C)C(F)(F)F)c(N)c2C(N)=O)cc1 | PLCγ2 human | PLCγ2 phosphorylation, refers to: PLCγ2 Y1217 | Ramos RA1 | – | – | IC50 | 9.1 nM |
| Cl.OCCNc1nc(Nc2ccccc2)nc2ccccc12 | Renilla luciferase reporter mRNA | in vitro translation, inhibitor | Trypanosoma cruzi translation extract | 5 µM | – | inhibition | 21.8% |
| CC(C)c1noc2ncc(C(=O)c3ccccc3O)cc12 | human Kv7.1 | ion current, whole-cell patch-clamp | – | 10 µM | – | inhibition | 16.4% |
| O=C(O)c1ccc2c(c1)nc(Nc1ccc(F)c(Cl)c1)c1ccncc12 | DYRK and HIPK kinases | enzyme activity, inhibitor, eight-kinase enzymatic panel | – | 1 µM, percent of control below 10 | – | number of kinases inhibited | 6 |
| O=C(NN=Cc1ccc(C[n+]2ccccc2)cc1)c1ccc2ccc3ccc(C(=O)NN=Cc4ccc(C[n+]5ccccc5)cc4)nc3c2n1.[Br-].[Br-] | MYC parallel G4 DNA | FRET melting | – | 1 µM, DNA 0.2 µM | – | ΔTm | 21.9 ± 0.1 °C |
| Fc1ccccc1Nc1nc(NCC2CCCO2)c2ccccc2n1 (centres unmarked) | Renilla luciferase reporter mRNA | in vitro translation, inhibitor | Trypanosoma cruzi translation extract | 30 µM | – | inhibition | 61.9% |
